Assay results gathered from unrelated publications.
Compare with care: the assays were run in different laboratories. Several values in a cell are separate wells, animals, samples, runs or records. Numbers after ± are the reported error.
WD repeat-containing protein 91 WD40 domain, residues 392–747: WD repeat-containing protein 91, WD40 domain, residues 392–747 (Homo sapiens, UniProt A4D1P6)
UniProt A4D1P6, sequence (whole entry, looked up): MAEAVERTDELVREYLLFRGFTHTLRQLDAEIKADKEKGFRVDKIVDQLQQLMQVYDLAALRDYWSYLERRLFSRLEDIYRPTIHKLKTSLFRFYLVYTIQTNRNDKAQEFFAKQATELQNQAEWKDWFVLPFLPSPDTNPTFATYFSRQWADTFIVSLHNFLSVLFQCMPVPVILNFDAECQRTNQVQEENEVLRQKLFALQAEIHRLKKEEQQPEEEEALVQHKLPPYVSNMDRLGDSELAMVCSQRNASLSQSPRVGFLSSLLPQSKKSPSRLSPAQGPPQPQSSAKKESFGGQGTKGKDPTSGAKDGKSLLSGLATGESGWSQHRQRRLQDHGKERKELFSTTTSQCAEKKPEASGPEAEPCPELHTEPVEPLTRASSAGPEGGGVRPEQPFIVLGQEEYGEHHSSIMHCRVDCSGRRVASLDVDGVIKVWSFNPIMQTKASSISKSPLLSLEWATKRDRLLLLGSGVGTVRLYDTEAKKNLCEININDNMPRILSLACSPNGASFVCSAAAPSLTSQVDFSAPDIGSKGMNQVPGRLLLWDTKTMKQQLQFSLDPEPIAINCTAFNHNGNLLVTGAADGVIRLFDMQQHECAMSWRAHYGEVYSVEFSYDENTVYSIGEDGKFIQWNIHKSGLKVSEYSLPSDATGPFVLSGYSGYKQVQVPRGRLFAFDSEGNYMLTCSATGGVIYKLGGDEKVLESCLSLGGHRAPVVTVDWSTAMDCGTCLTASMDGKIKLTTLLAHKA
Genome polyprotein NS3 helicase domain: Genome polyprotein, NS3 helicase domain (Hepatitis C virus genotype 1b, UniProt Q9WMX2)
WD repeat-containing protein 91: WD repeat-containing protein 91 (Homo sapiens, UniProt A4D1P6)
UniProt O76090, sequence (whole entry, looked up): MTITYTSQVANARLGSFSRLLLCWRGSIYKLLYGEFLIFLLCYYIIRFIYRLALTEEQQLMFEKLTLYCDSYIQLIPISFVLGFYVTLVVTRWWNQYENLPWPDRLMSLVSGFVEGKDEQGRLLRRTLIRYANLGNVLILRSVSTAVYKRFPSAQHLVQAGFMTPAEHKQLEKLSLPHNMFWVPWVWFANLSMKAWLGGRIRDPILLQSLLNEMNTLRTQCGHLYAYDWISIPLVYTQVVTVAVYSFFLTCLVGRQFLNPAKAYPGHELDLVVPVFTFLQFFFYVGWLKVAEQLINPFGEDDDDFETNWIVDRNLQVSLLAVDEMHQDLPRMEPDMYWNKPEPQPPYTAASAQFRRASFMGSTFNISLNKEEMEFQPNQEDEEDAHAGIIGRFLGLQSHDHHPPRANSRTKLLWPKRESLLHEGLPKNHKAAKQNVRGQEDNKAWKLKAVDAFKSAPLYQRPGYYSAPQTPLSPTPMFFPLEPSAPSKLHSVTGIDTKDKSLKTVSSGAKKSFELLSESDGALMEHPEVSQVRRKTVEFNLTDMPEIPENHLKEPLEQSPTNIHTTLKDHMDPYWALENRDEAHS
UniProt O60318, sequence (whole entry, looked up): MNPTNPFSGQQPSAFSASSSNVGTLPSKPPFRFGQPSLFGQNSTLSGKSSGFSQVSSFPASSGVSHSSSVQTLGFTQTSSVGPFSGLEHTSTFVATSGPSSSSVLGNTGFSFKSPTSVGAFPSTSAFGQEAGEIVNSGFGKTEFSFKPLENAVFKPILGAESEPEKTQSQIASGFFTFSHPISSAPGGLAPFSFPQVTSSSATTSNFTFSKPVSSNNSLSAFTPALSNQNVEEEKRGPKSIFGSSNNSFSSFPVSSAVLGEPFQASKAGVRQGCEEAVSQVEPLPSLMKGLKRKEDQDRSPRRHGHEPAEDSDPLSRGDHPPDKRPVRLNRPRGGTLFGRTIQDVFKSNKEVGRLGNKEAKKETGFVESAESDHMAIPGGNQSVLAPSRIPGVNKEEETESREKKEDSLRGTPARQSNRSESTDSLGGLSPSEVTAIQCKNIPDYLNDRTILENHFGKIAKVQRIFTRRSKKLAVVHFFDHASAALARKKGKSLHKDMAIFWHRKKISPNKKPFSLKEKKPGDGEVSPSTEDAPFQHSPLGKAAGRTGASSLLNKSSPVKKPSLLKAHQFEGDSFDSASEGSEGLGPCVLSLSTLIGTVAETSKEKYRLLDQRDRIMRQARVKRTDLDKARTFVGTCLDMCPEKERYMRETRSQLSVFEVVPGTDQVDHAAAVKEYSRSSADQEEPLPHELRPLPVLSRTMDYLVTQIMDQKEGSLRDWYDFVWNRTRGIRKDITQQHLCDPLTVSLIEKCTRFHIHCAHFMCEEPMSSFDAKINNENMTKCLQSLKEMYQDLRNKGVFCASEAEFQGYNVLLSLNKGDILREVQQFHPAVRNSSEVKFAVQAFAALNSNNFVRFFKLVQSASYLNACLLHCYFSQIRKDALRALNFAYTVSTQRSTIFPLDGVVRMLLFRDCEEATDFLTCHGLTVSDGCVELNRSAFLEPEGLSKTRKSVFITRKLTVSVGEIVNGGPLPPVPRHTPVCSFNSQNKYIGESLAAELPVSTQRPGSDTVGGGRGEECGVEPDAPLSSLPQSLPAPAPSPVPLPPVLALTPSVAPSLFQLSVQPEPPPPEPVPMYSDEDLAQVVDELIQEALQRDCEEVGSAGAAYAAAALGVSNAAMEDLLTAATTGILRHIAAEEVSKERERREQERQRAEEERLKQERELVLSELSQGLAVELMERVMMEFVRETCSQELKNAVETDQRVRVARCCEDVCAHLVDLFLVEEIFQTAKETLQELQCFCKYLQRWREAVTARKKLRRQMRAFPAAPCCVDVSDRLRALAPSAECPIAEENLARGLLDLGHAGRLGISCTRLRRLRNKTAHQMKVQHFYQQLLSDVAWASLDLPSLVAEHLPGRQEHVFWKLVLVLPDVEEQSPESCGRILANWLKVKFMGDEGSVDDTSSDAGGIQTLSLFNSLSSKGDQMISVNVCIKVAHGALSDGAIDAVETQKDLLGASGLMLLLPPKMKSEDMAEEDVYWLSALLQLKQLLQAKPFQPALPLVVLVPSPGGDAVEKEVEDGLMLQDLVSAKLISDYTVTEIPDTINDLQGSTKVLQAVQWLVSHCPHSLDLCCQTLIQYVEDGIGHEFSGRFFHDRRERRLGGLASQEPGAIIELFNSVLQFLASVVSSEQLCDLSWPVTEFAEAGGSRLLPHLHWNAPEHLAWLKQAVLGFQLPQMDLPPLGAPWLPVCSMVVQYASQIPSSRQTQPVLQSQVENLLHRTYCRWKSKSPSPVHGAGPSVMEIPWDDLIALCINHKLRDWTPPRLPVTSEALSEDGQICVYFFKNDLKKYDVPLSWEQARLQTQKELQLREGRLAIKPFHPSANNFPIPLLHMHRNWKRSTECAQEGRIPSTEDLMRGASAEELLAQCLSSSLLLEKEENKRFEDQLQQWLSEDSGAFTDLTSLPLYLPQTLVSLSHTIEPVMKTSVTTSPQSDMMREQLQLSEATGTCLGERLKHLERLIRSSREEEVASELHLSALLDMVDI
UniProt P51575, sequence (whole entry, unmodified, looked up): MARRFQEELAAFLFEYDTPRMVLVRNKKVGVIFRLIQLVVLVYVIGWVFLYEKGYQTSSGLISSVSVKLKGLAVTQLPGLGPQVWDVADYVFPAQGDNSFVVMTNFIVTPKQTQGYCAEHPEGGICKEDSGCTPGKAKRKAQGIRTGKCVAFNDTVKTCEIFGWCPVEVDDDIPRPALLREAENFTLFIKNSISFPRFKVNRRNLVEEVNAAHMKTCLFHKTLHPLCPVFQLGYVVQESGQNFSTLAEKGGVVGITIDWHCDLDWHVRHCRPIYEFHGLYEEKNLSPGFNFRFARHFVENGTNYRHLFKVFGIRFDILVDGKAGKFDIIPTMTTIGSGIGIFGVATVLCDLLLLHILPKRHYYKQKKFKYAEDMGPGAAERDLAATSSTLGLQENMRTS
UniProt Q92570, sequence (whole entry, looked up): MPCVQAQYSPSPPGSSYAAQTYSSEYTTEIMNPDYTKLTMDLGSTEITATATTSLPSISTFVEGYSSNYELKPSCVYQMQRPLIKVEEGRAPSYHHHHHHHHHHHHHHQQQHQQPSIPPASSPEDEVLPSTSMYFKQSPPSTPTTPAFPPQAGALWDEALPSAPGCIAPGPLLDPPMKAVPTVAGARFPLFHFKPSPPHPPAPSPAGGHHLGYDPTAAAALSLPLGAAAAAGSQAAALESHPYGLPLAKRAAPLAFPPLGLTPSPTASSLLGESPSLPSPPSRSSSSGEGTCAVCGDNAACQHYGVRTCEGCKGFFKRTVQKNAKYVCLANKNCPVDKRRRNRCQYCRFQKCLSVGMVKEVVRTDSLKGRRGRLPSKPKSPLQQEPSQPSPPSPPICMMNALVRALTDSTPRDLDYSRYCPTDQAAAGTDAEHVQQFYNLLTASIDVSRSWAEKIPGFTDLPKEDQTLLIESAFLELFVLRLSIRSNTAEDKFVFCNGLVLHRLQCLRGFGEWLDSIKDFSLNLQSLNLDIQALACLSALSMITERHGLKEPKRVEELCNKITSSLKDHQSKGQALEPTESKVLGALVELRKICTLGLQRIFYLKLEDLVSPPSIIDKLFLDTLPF
UniProt P06241, sequence (whole entry, looked up): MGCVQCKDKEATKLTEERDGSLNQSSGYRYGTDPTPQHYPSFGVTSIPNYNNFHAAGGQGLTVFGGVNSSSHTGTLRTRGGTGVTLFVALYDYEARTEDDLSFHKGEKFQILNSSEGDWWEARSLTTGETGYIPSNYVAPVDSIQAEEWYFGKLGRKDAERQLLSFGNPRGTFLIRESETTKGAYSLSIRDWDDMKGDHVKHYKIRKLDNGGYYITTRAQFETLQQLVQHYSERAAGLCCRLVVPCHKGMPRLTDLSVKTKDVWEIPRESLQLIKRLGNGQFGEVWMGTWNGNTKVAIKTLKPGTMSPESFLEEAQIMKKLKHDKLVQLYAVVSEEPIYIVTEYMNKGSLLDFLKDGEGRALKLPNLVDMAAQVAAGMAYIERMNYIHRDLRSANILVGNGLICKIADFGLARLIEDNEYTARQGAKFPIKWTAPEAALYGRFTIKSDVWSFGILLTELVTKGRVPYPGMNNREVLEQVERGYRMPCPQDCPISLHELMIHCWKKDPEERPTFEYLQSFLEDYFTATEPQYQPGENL

C=CC(=O)N1CCC(COCC(=O)N2CCN(c3nc(-c4cnc(N)nc4C(F)F)nc(N4CCOC[C@@H]4C)n3)CC2)CC1 — remaining binding (Citron Rho-interacting kinase (CIT, Homo sapiens, UniProt O14578); KINOMEscan; 1 µM; baseline: DMSO control): 91%
CC[C@H](C)[C@H](NC(=O)[C@H](CCCCN)NC(=O)CNC(=O)[C@@H](NC(=O)[C@@H](NC(=O)[C@H](CCSC)NC(=O)[C@H](Cc1c[nH]cn1)NC(=O)CN)[C@@H](C)O)C(C)C)C(=O)N[C@@H](Cc1ccc(O)cc1)C(=O)N[C@@H](C)C(=O)N[C@@H](C)C(=O)N[C@@H](CCSC)C(=O)N[C@@H](CCSC)C(=O)N[C@@H](C)C(=O)N[C@@H](CCSC)C(=O)N[C@@H](CCC(=O)O)C(=O)N[C@@H](Cc1ccc(O)cc1)C(=O)N[C@@H](Cc1ccc(O)cc1)C(=O)N[C@@H](CCCNC(=N)N)C(=O)N[C@@H](CCC(N)=O)C(=O)N[C@@H](CO)C(=O)N[C@@H](CCCCN)C(=O)N[C@@H](C)C(=O)N[C@@H](CCCCN)C(=O)N[C@@H](CCCCN)C(=O)N[C@@H](CC(C)C)C(=O)N[C@@H](CCC(N)=O)C(=O)N[C@@H](C)C(=O)N[C@@H](CCSC)C(=O)N[C@@H](CCCNC(=N)N)C(=O)O — ΔH (Calmodulin-1, Ca2+-bound N-lobe (CALM1, Homo sapiens, UniProt P0DP23); binding, isothermal titration calorimetry; pH 7.4, 15 °C, N-lobe, CaV2.1 IQ domain, added: Ca2+): -5.45 ± 0.02 kcal/mol
CC(=C/C(=O)O)/C=C/C=C(\C)C1C=C2C(C)(C)CCCC2(C)O1 (centres unmarked) — plasma membrane localization (Rhodopsin (RHO, Homo sapiens, UniProt P08100, P23H); immunostaining, measured: opsin; COS-7 transfected; 5.00 µM, unit not given; baseline: surface over total stained cells): 0.51
O=c1cc(-c2ccc(O)cc2)oc2cc(O)c(O)c(O)c12 — selectivity ratio (Estrogen receptor (ESR1, Homo sapiens, UniProt P03372); array formation; PRL-HeLa; baseline: EC50 ERβ over EC50 ERα): 0.728
O=C(COP(=O)(O)O)[C@@H](O)[C@H](O)[C@H](O)COP(=O)(O)O — thermal stability ratio (Germinal-center associated nuclear protein, 80 kDa isoform (MCM3AP, Homo sapiens, UniProt O60318); thermal proteome profiling, measured: MCM3AP; HepG2 cell lysate; concentration not given, 57 over 37 °C; baseline: compound over control): 0.4 and 10 and 0.971
Cc1ccc(CN(C(=O)c2cc3cccn3cn2)C2CCc3ccccc32)cc1 (centres unmarked) — SPR response (WD repeat-containing protein 91 WD40 domain, residues 392–747; binding, SPR single-concentration screen; 45 µM): 37.8 RU and 16.9 RU
Nc1ccc(C(=O)O)cc1 — current density (BEST1 (Homo sapiens, UniProt O76090); whole-cell patch clamp; HEK293 transiently expressing channel; concentration not given, membrane potential 80 mV): 115 pA/pF and 60.1 pA/pF and 139 pA/pF and 71 pA/pF and 83.8 pA/pF and 134 pA/pF and 105 pA/pF
CCCN1C[C@H](CSC)C[C@@H]2c3cccc4[nH]cc(c34)C[C@H]21 — potentiation (Glutamate receptor 2 (Homo sapiens, UniProt P42262); ion current, positive allosteric modulator, SyncroPatch patch clamp; HEK293; 30 µM): 99%
O=C1Nc2ccccc2/C1=C1/Nc2ccccc2/C1=N\O — inhibition (Genome polyprotein NS3 helicase domain; DNA binding, inhibitor; hepatitis C virus; 100 µM, added: Cy5-dT15 DNA): 0%
CC(=O)N[C@H](C(=O)N[C@@H](CC(N)=O)C(=O)N[C@@H](CCCCN)C(=O)N1CCC[C@H]1C(=O)N[C@@H](CC(C)C)C(=O)N1CCC[C@H]1C(=O)N1CCC[C@H]1C(=O)N[C@@H](CC(C)C)C(=O)N1CCC[C@H]1C(=O)N[C@H](C(=O)N[C@@H](C)C(N)=O)C(C)C)C(C)C — peak area (Tyrosine-protein kinase Fyn, SH3 domain (FYN, Homo sapiens, UniProt P06241); ligand binding, FTIR spectroscopy, measured: asymmetric stretch band B; pH 7.0, FYN complex, added: 4 mM peptide): 76 ± 4%
CCn1c(=O)[nH]c2cc(C(=O)NC(c3ccc(F)cc3)c3cnn(C)c3)ccc2c1=O (centres unmarked) — SPR response (WD repeat-containing protein 91; binding, SPR steady state; 0.05859 µM): 1.2 RU
Cc1ncc(CO)c(CN)c1O — product formation (N-alpha-acetyltransferase 80 (NAA80, Homo sapiens, UniProt Q93015); substrate, DTNB; 2 mM, 30 min, 37 °C, added: acetyl-CoA 500 µM): 1.58 µM
N#CC1CCN(C(=O)c2ccc(Cn3cc(-c4ccc5ncccc5c4)nn3)cc2)CC1 — binding (WD repeat-containing protein 91 WD40 domain, residues 392–747; SPR; 45 µM): 5% and 6%
O=C(NC1CCCS(=O)(=O)c2ccccc21)c1ccc2nc(O)cnc2c1 (centres unmarked) — SPR response (WD repeat-containing protein 91; binding, SPR steady state; 7.5 µM): 28.6 RU
Nc1ccc(S(=O)(=O)Nc2ccnn2-c2ccccc2)cc1 — inhibition (Genome polyprotein NS3 helicase domain; DNA binding, inhibitor; hepatitis C virus; 100 µM, added: Cy5-dT15 DNA): 1%
CC[C@@H]1[C@H](F)C(=O)N[C@@H]1COc1nccc2cc(C(N)=O)c(OC)cc12 — inhibition (Dual specificity mitogen-activated protein kinase kinase 4 (MAP2K4, Homo sapiens, UniProt P45985); ATP-site probe binding, ActivX profiling; THP-1 cell lysate; 0.04 mM, Lys1 site): -17.8%
COc1cc(/C=C/C(=O)C(=Cc2cccc(O)c2)C(=O)/C=C/c2ccc(O)c(OC)c2)ccc1O — ΔH (haemin; binding, isothermal titration calorimetry; pH 7.4, 37 °C): -23.4 ± 0.313 kcal/mol
Nc1ncnc2c1ncn2[C@@H]1O[C@H](COP(=O)(O)CP(=O)(O)OP(=O)(O)O)[C@@H](O)[C@H]1O — specific binding (P2X purinoceptor 1 (P2RX1, Homo sapiens, UniProt P51575, K136W); saturation binding; HEK293; 79 nM): 4360 CCPM and 2630 CCPM
C=C[C@@]1(C)CC(=O)[C@]2(O)[C@@]3(C)[C@@H](O)CCC(C)(C)[C@@H]3[C@H](O)[C@H](OC(C)=O)[C@@]2(C)O1 — inhibition (Genome polyprotein NS3 helicase domain; DNA binding, inhibitor; hepatitis C virus; 100 µM, added: Cy5-dT15 DNA): 0%
Nc1ccn([C@H]2C[C@H](O)[C@@H](COP(=O)(O)OP(=O)(O)OP(=O)(O)O)O2)c(=O)n1 — kcat (DNA polymerase lambda (POLL, Homo sapiens, UniProt Q9UGP5); substrate; AP-site template): 8.33e-05 s⁻¹
CN1CCCCC1Cc1cn(Cc2ccc(C(=O)N3CCC(C#N)CC3)cc2)nn1 (centres unmarked) — SPR response (WD repeat-containing protein 91 WD40 domain, residues 392–747; binding, SPR single-concentration screen; 45 µM): -2.7 RU and -8.7 RU
CCN1CCN(c2cc(N3CCN(CC)CC3)nc(NCCNc3ccnc4cc(Cl)ccc34)n2)CC1 — activation (Nuclear receptor subfamily 4 group A member 3, ligand-binding domain (Homo sapiens, UniProt Q92570); reporter gene, Gal4 hybrid reporter; 20 µM; baseline: vehicle): 2.94 fold
COc1cc(Nc2nccc(-c3cnn4nc(OC)ccc34)n2)cc(C(F)(F)F)c1 — binding (Homeodomain-interacting protein kinase 2 (HIPK2, Homo sapiens, UniProt Q9H2X6); NanoBRET target engagement; live cells; concentration not given, no binding): no binding
CCCC[C@H]1C(=O)N(C)[C@@H](CCCC)C(=O)N[C@@H](CCCCNC(=O)CN2CCN(CC(=O)O)CCN(CC(=O)O)CC2)C(=O)N[C@H](C(=O)NCC(N)=O)CSCC(=O)N[C@@H](Cc2ccc(O)cc2)C(=O)N(C)[C@@H](C)C(=O)N[C@@H](CC(N)=O)C(=O)N2CCC[C@H]2C(=O)N[C@@H](Cc2c[nH]cn2)C(=O)N[C@@H](CCC(=O)O)C(=O)N2C[C@H](O)C[C@H]2C(=O)N[C@@H](Cc2c[nH]c3ccccc23)C(=O)N[C@@H](CO)C(=O)N[C@@H](Cc2cn(CC(=O)O)c3ccccc23)C(=O)N1C [gallium-68 labelled] — cell uptake (Programmed cell death 1 ligand 1 (CD274, Homo sapiens, UniProt Q9NZQ7); U-87 MG; added: anti-PD-L1 antibody block): 0.56%
COC(=O)C1=C(C)NC(C)=C(C(=O)OCCN(C)Cc2ccccc2)C1c1cccc([N+](=O)[O-])c1 (centres unmarked) — inhibition (Genome polyprotein NS3 helicase domain; DNA binding, inhibitor; hepatitis C virus; 100 µM, added: Cy5-dT15 DNA): 3%
CCCCCCSc1nnc2c(n1)OC(c1ccc(C(=O)O)cc1)Nc1ccccc1-2 (centres unmarked) — EC50 (Voltage-gated potassium channel, KQT; KCNQ2(Kv7.2)/KCNQ3(Kv7.3) (KCNQ3/KCNQ2, Homo sapiens, UniProt O43525+O43526); G(V) shift, activator, two-electrode voltage clamp; Xenopus oocytes; pH 7.4, up to 100 µM, at -17.2 mV): 279 µM
CC(=O)N[C@@H](CC(N)=O)C(=O)N[C@@H](CC(C)C)C(=O)NCC(=O)N[C@@H](CCCCN)C(=O)N[C@@H](Cc1c[nH]cn1)C(=O)N[C@@H](CCC(=O)O)C(=O)N[C@@H](CCCCN)C(=O)N[C@@H](Cc1ccccc1)C(=O)N[C@@H](CO)C(=O)N[C@@H](CCC(=O)O)C(=O)N[C@H](C(=O)N[C@@H](CC(C)C)C(=O)N[C@@H](CCCCN)C(=O)N[C@@H](CCCNC(=N)N)C(=O)N[C@@H](CC(C)C)C(=O)N[C@@H](CCCNC(=N)N)C(=O)N[C@@H](CC(C)C)C(=O)N[C@@H](CCC(N)=O)C(N)=O)C(C)C — binding stoichiometry (Calmodulin-1, C-lobe (CALM1, Homo sapiens, UniProt P0DP23); ITC; concentration not given, C-lobe, added: 1 mM CaCl2): 1.01
O=C(O)c1ccc(Nc2ncc3c(n2)-c2ccc(Cl)cc2C(c2c(F)cccc2F)=NC3)cc1 — remaining activity (CHK2(h); kinase activity; 1 µM): 83%
O=c1c2ccccc2nc2n1CCc1c-2[nH]c2ccccc12 — inhibition (Genome polyprotein NS3 helicase domain; DNA binding, inhibitor; hepatitis C virus; 100 µM, added: Cy5-dT15 DNA): 2%
